Experimental data gathered from unrelated publications.
Each line is one published result; not all experiments were run side by side. Values joined by “and” are separate records of one study, mostly repeats; a detail may differ. Numbers after ± are the reported error. ≈ marks a conversion by molar mass, not a printed value.
Organism: Klebsiella pneumoniae

CC(C)C[C@H](NC(=O)[C@H](Cc1ccc(O)cc1)NC(=O)[C@@H]1CCCN1C(=O)[C@H](CCCNC(=N)N)NC(=O)[C@@H]1CCCN1C(=O)[C@H](CCCCN)NC(=O)[C@H](CC(=O)O)NC(=O)[C@@H]1CCCN1C(=O)[C@H](CCCNC(=N)N)NC(=O)C1(N)CCCCC1)C(=O)N1CCC[C@H]1C(=O)N[C@@H](CCCNC(=N)N)C(=O)N1CCC[C@H]1C(=O)N[C@@H](CCCNC(=N)N)C(=O)N1CCC[C@H]1C(=O)N1CCC[C@H]1C(=O)N[C@@H](CCCNC(=N)N)C(=O)N1CCC[C@H]1C(=O)N[C@H](C(=O)N[C@@H](CCCNC(=N)N)C(=O)N[C@@H](CSCc1cccc(CSC[C@H](NC(=O)[C@H](CCCNC(=N)N)NC(=O)[C@@H](NC(=O)[C@@H]2CCCN2C(=O)[C@H](CCCNC(=N)N)NC(=O)[C@@H]2CCCN2C(=O)[C@@H]2CCCN2C(=O)[C@H](CCCNC(=N)N)NC(=O)[C@@H]2CCCN2C(=O)[C@H](CCCNC(=N)N)NC(=O)[C@@H]2CCCN2C(=O)[C@H](CC(C)C)NC(=O)[C@H](Cc2ccc(O)cc2)NC(=O)[C@@H]2CCCN2C(=O)[C@H](CCCNC(=N)N)NC(=O)[C@@H]2CCCN2C(=O)[C@H](CCCCN)NC(=O)[C@H](CC(=O)O)NC(=O)[C@@H]2CCCN2C(=O)[C@H](CCCNC(=N)N)NC(=O)C2(N)CCCCC2)C(C)C)C(=O)NN)c1)C(=O)NN)C(C)C
MDC (membrane disruption, propidium iodide uptake; 13883; 90 min, 37 °C): 32.7 ± 1.4 µg/mL

CC1(C)[C@H](NC(=O)/C(=N\OCCN)c2nsc(N)n2)C(=O)N1OS(=O)(=O)O
MIC (agar dilution; ATCC 700603, ESBL-producing): > 64 µg/mL

c1ccc(CN2CCOCCOCCN(CCCCCCCCN3CCOCCOCCN(CCCCCCCCN4CCOCCOCCN(Cc5ccccc5)CCOCCOCC4)CCOCCOCC3)CCOCCOCC2)cc1
tetracycline MIC (ATCC BAA-2146; quarter MIC, added: tetracycline): 250 ± 50 µM

CN(C)S(=O)(=O)c1ccc(S(=O)(=O)N2CCC(n3c(=O)[nH]c4ccccc43)CC2)cc1
lung bacterial burden (ATCC 700603, mouse lung infection model, lung; 6 mg/kg, 24 h): 5.35 log CFU and 6.56 log CFU and 5.86 log CFU and 5.84 log CFU and 6.22 log CFU

CC(C)C[C@H](NC(=O)[C@H](Cc1ccc(O)cc1)NC(=O)[C@@H]1CCCN1C(=O)[C@H](CCCNC(=N)N)NC(=O)[C@@H]1CCCN1C(=O)[C@H](CCCCN)NC(=O)[C@H](CC(=O)O)NC(=O)[C@@H]1CCCN1C(=O)[C@H](CCCNC(=N)N)NC(=O)C1(N)CCCCC1)C(=O)N1CCC[C@H]1C(=O)N[C@@H](CCCNC(=N)N)C(=O)N1CCC[C@H]1C(=O)N[C@@H](CCCNC(=N)N)C(=O)N1CCC[C@H]1C(=O)N1CCC[C@H]1C(=O)N[C@@H](CCCNC(=N)N)C(=O)N1CCC[C@H]1C(=O)N[C@H](C(=O)N[C@@H](CCCNC(=N)N)C(=O)N[C@@H](CSc1c(F)c(F)c(-c2c(F)c(F)c(SC[C@H](NC(=O)[C@H](CCCNC(=N)N)NC(=O)[C@@H](NC(=O)[C@@H]3CCCN3C(=O)[C@H](CCCNC(=N)N)NC(=O)[C@@H]3CCCN3C(=O)[C@@H]3CCCN3C(=O)[C@H](CCCNC(=N)N)NC(=O)[C@@H]3CCCN3C(=O)[C@H](CCCNC(=N)N)NC(=O)[C@@H]3CCCN3C(=O)[C@H](CC(C)C)NC(=O)[C@H](Cc3ccc(O)cc3)NC(=O)[C@@H]3CCCN3C(=O)[C@H](CCCNC(=N)N)NC(=O)[C@@H]3CCCN3C(=O)[C@H](CCCCN)NC(=O)[C@H](CC(=O)O)NC(=O)[C@@H]3CCCN3C(=O)[C@H](CCCNC(=N)N)NC(=O)C3(N)CCCCC3)C(C)C)C(=O)NN)c(F)c2F)c(F)c1F)C(=O)NN)C(C)C
MDC (membrane disruption, propidium iodide uptake; 13883; 90 min, 37 °C): 4.2 ± 0.1 µg/mL

CC[C@H](C)CCCCC(=O)N[C@@H](CCN)C(=O)N[C@H](C(=O)N[C@@H](CCN)C(=O)N[C@H]1CCNC(=O)[C@H]([C@@H](C)O)NC(=O)[C@H](CCN)NC(=O)[C@H](CCN)NC(=O)[C@H](CC(C)C)NC(=O)[C@@H](CC(C)C)NC(=O)[C@H](CCN)NC1=O)[C@@H](C)O
bacterial load (BAA-2784, BALB/c mouse peritonitis, spleen; dose not given): 8.3 log CFU and 8.38 log CFU and 8.56 log CFU and 7.68 log CFU

c1ccc(CN2CCOCCOCCN(CCCCCCCCCCCCCCN3CCOCCOCCN(CCCCCCCCCCCCCCN4CCOCCOCCN(Cc5ccccc5)CCOCCOCC4)CCOCCOCC3)CCOCCOCC2)cc1
FIC index (checkerboard; ATCC BAA-2146; half MIC, added: tetracycline): 0.56

CC1(C)[C@H](NC(=O)/C(=N\OC2(C(=O)O)CCCCC2)c2csc(N)n2)C(=O)N1OS(=O)(=O)O
MIC (agar dilution; 16-14, ESBL-producing): 2 µg/mL (≈ 3.96 µM)

CC(C)C[C@H](NC(=O)[C@H](Cc1ccc(O)cc1)NC(=O)[C@@H]1CCCN1C(=O)[C@H](CCCNC(=N)N)NC(=O)[C@@H]1CCCN1C(=O)[C@H](CCCCN)NC(=O)[C@H](CC(=O)O)NC(=O)[C@@H]1CCCN1C(=O)[C@H](CCCNC(=N)N)NC(=O)C1(N)CCCCC1)C(=O)N1CCC[C@H]1C(=O)N[C@@H](CCCNC(=N)N)C(=O)N1CCC[C@H]1C(=O)N[C@@H](CCCNC(=N)N)C(=O)N1CCC[C@H]1C(=O)N1CCC[C@H]1C(=O)N[C@@H](CCCNC(=N)N)C(=O)N1CCC[C@H]1C(=O)N[C@H](C(=O)N[C@@H](CCCNC(=N)N)C(=O)N[C@@H](CSCc1ccc(CSC[C@H](NC(=O)[C@H](CCCNC(=N)N)NC(=O)[C@@H](NC(=O)[C@@H]2CCCN2C(=O)[C@H](CCCNC(=N)N)NC(=O)[C@@H]2CCCN2C(=O)[C@@H]2CCCN2C(=O)[C@H](CCCNC(=N)N)NC(=O)[C@@H]2CCCN2C(=O)[C@H](CCCNC(=N)N)NC(=O)[C@@H]2CCCN2C(=O)[C@H](CC(C)C)NC(=O)[C@H](Cc2ccc(O)cc2)NC(=O)[C@@H]2CCCN2C(=O)[C@H](CCCNC(=N)N)NC(=O)[C@@H]2CCCN2C(=O)[C@H](CCCCN)NC(=O)[C@H](CC(=O)O)NC(=O)[C@@H]2CCCN2C(=O)[C@H](CCCNC(=N)N)NC(=O)C2(N)CCCCC2)C(C)C)C(=O)NN)cc1)C(=O)NN)C(C)C
MDC (membrane disruption, propidium iodide uptake; 13883; 90 min, 37 °C): 17.5 ± 0.1 µg/mL

c1ccc(CN2CCOCCOCCN(CCCCCCCCCCN3CCOCCOCCN(CCCCCCCCCCN4CCOCCOCCN(Cc5ccccc5)CCOCCOCC4)CCOCCOCC3)CCOCCOCC2)cc1
FIC index (checkerboard; ATCC BAA-2146; quarter MIC, added: tetracycline): 0.58
